# Measurements pooled from the literature.
# Each numbered part is a random draw from the data of one study; scales do not carry over between parts. Positions count from the first letter of the parent shown.

# Study 1
# Target: Sal-like protein 4, full length isoform A (SALL4, Homo sapiens, UniProt Q9UJQ4, residues 1-1053)
# Sequence of UniProt Q9UJQ4 (whole entry, looked up): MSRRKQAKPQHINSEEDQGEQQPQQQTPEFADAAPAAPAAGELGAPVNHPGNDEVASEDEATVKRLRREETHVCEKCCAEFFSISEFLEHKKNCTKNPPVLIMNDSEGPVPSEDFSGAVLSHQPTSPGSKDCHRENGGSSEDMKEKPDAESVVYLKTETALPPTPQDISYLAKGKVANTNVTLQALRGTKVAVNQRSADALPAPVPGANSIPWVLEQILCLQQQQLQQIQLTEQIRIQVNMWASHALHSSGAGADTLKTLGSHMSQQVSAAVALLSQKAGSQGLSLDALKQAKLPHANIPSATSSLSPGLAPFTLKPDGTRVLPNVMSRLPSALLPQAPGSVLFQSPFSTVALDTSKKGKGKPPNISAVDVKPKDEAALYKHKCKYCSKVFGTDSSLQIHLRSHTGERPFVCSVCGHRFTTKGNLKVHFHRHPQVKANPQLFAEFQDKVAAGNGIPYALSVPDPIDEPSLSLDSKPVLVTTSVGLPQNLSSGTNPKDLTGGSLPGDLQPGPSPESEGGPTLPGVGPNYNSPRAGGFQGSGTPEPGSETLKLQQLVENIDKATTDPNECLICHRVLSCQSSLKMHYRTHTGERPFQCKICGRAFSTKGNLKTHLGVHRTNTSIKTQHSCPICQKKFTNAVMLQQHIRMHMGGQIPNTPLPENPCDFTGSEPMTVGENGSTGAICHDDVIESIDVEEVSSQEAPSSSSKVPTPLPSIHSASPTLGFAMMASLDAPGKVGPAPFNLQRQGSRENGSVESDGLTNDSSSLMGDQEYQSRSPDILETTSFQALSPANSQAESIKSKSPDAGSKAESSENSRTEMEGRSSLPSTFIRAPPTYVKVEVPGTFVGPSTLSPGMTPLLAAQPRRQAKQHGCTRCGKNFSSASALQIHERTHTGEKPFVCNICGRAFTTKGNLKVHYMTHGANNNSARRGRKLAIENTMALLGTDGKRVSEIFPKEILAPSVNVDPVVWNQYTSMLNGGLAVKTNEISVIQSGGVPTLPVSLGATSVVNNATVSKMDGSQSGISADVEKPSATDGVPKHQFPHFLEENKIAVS
# Method: universal PBM
# Form: double-stranded DNA, one strand shown
# Medium: in vitro
# Concentration: 600 nM
# Notes: 8-mer, flanks averaged, mean of replicates
# Direction: higher = stronger binding
Sequence,E-score
ATTTACGC,0.155
ATCTCACG,-0.0115
ACACGCCA,-0.225
GTTCGCCA,-0.0415
GTGATCCA,-0.0907
CGTACCAG,-0.199
CCGCTTCG,-0.335
GAGTCCGC,-0.331
AGGTTAGG,-0.07
CCGAGTAC,-0.176
CGAGCTCC,-0.187
CGGGTGCC,-0.347
AAGGGAAC,-0.131
CGTGGTAC,-0.134
AGGTTTCC,-0.0753

# Study 2
# Substance: PhoQ, residues 284 288 289 292 302 303 QWGLFV
# Method: Sort-seq
# Measured: YFP reporter
# Medium: E. coli
# Notes: PhoQ-PhoP variant library
# Together with: 10 µM Mg2+
# Reference: high Mg2+ state
# Direction: higher = stronger signaling
target,fold induction
"PhoP, residues 12 14 15 18 19 TQALL (Escherichia coli, UniProt P23836)",6.76
"PhoP, residues 12 14 15 18 19 NYFRM (Escherichia coli, UniProt P23836)",3.93
"PhoP, residues 12 14 15 18 19 QYFSL (Escherichia coli, UniProt P23836)",2.76

# Study 3
# Target: Interferon regulatory factor 7, full length, phosphomimetic (IRF7, Homo sapiens, UniProt Q92985, residues 1-503, S101K/S471D/S472D/S475D/S476D/S477D/S483D/S484D/S487D)
# Method: protein-binding microarray
# Form: double-stranded DNA, one strand shown
# Medium: in vitro
# Concentration: 250 nM
# Notes: 60-bp whole probe
# Together with: salmon DNA 0.4 mg/ml
# Reference: random background probes
# Direction: higher = stronger binding
# All sequences stand within: GCCTAGCAC … GTCTTGATTCGCTTGACGCTGCTG
# Target sequence (chain): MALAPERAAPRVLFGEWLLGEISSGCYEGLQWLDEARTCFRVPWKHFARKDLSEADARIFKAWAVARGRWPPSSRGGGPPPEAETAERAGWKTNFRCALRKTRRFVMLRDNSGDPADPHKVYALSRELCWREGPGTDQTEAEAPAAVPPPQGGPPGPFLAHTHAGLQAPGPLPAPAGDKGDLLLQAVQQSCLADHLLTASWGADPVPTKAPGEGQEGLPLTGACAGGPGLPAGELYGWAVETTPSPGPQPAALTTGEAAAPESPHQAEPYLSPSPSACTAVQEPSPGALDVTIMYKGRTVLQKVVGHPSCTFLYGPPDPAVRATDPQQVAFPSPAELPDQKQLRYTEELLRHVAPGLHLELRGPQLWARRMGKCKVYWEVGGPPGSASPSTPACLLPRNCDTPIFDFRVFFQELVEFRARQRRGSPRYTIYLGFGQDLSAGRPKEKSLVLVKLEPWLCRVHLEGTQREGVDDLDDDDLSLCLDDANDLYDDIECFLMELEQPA
Sequence,log fluorescence
TTAGGACTGGGGTTCCGGTTAGTGCTA,0.842 z-score
CATATTCTCTTCTTGCATCTGTGCTAG,2.28 z-score
GACGAACTGGGGACTGCAGACGTGCTA,-0.416 z-score
TTCGGTTCCGGTTTCGGTTAGTGCTAG,10.3 z-score
TTAGGTCTCGGTCTCTGTTAGTGCTAG,2.15 z-score
TTAGATATCGGGTTTCGGTTAGTGCTA,6.66 z-score
GAATGTCTTCCCCTCTCATTGTGCTAG,0.685 z-score
GCCGATATCAGTCTCGAGACGTGCTAG,0.601 z-score
TACGGTATCCTTCTCCTGACGTGCTAG,0.396 z-score
TTAGGTTTCGGATATCGGTTAGTGCTA,6.01 z-score
TTAGGTTTCCTTCTACTTTAGTGCTAG,2.36 z-score
GAAGATATCAGACTGGAGACGTGCTAG,-0.21 z-score
TTAGGTATCGTACTGCTTTAGTGCTAG,0.593 z-score

# Study 4
# Target: CCNA2, cyclin fold, Cln2 fusion (human)
# Method: yeast growth competition, sequencing
# Medium: yeast
# Notes: strong parent motif
# Reference: not given
# Direction: higher = stronger binding
# Parent: PKMYT1 docking peptide (human); SFEPRNLLSLFED; partner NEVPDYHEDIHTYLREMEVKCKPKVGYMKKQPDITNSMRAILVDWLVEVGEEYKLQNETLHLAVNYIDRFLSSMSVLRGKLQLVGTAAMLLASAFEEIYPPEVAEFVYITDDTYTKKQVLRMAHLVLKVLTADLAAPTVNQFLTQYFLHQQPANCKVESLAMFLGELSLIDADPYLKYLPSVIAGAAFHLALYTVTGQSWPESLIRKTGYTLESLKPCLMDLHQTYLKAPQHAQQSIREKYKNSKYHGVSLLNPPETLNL
Substitution,normalised enrichment score
L8Q,1.03
D13K,3.26
D13T,2.67
P4K,0.187
N6F,0.0312
R5G,-0.311
F11Y,1.79

# For quick reference, copied from above (study 4):
Substitution,normalised enrichment score
L8Q,1.03
F11Y,1.79
D13T,2.67
R5G,-0.311
P4K,0.187
